Results pooled from the literature.
A part holds a random share of what one study measured. Changes are numbered by the printed parent chain.

Block 1
Target: RNA binding protein fox-1 homolog 2, RRM domain, GST-SBP tag (RBFOX2, Homo sapiens, UniProt O43251-10, residues 100-194)
Technique: RNA Bind-n-Seq
Molecule type: RNA
Matrix: in vitro
Tested at: 365 nM
Setting: natural RNA segment, single round, ends assumed
Relative to: no-protein control
Reading: higher = stronger binding
Target sequence (chain): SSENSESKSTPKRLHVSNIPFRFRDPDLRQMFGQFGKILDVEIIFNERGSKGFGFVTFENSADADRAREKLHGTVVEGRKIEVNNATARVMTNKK
For `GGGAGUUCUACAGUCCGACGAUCGAUUUGUUUUCUUCAAUAGUCUUAUUUUCAGUCUCUCAAAUACAGCCAACUUAAAGUUUUAGUUUGGUGUUUAUUGAAAAUUAACCAAACUUAAUACUAGGAGAAGACUGUGGAAUUCUCGGGUGCCAA`, “RBNS enrichment (R)” read 0.417.
For `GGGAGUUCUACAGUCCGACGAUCCCUGUACAGGGGGAGGCGGCAGCUCUGGGACCCUGUGCCUGUCCACCCAAAGGCUCCAGCCAGCUGCACUCCUGGCAGUUUCCUGCACUUGGGCCUGAUGCUUCUCUAACUGGAAUUCUCGGGUGCCAA`, “RBNS enrichment (R)” read 1.03.
Under “RBNS enrichment (R)”, `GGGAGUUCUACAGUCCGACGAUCCAGGGUGCACAGCAGGGCGGGGUAGGACCCCAGCCCCUCCCAAAACAGCCUCUCCUUCUCCCAUAGACCCCUUUCUUCUCCCCUUCCCCACGGUAGGAACAUAGCGUGUUUGGAAUUCUCGGGUGCCAA` is recorded as 0.432.
For `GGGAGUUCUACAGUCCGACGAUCGGGCUCAUUCCACGCAUUGCCUGCAGCCAUCUGCACACUGCACCUGCUGGCAGCUCCUCCCCAGCAAGGCUGGGCUAGAAGGCAGCUUUAGAAGUGAGCCCCUCUAAUGCUGGAAUUCUCGGGUGCCAA`, “RBNS enrichment (R)” read 0.628.
For `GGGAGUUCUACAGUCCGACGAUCCUCCUCCCCCAAGAGCACAAACAUCUUACCACCCAUCGUGUGACCCUCGUGGCAGGCGGGCAUGUCCCGCUCCCUUCCGCCACCAAUUUGUAUUAGAGAAGGCACUUUGAUGGAAUUCUCGGGUGCCAA`, “RBNS enrichment (R)” read 1.18.
For `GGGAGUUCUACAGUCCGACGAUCAGUUUAUAGCAUACAAAAAUUAUACUGCUCUUCCCAGUAAGGGACUAAAAGGACAUUUGAAAUCUUUACAUUUUAGAUGUUUUUGUGAAUUAUAAAUAUCUCCUUUUUCCUGGAAUUCUCGGGUGCCAA`, “RBNS enrichment (R)” read 0.979.
`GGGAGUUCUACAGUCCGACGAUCUUGCCUGGGAGCAAACCGCCAGGACGCAGCCUCCACGCCGCACCUGCCACAUUCAGCCCUGCCCAGGAAGGAACACAUGACCCUUCUGUCUGUGACUGUUGCUGAGUCUCUGGAAUUCUCGGGUGCCAA`: “RBNS enrichment (R)” 0.274.
`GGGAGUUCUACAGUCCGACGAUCGGCCCGACCUAUCUAGCCCUCUCUGCUGUUACCUGCCAUGCCUUGCCCCUCUCCUUCCUGGCUACUUAAGGUCAGGAAGGAAAAAGGGGACCUCUGUUUCUUCGGCUGUUUGGAAUUCUCGGGUGCCAA`: “RBNS enrichment (R)” 0.331.
For `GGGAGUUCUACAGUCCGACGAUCUAUUCCAAACAAAAUAACCGUAGAAGAAUACAACUGAUAAAAAUAAAAUAACCCAUUUGUUCACAGUUCUAAAACUAACUGGUUAAUAGGCUAAUGAUGUUCACUCAUUCUGGAAUUCUCGGGUGCCAA`, “RBNS enrichment (R)” read 0.33.
For `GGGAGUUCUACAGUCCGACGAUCACUCCUUUUCUUUACAGCCGAAAUUGCUUUAAGUGAUGGUUAAAUUGACAAAUUAAGAUGUUAAUUUUUAUCGAUGUGAUUUGUAAUUAAGAUAUUUUGAUUUCAAUAACUGGAAUUCUCGGGUGCCAA`, “RBNS enrichment (R)” read 0.35.
Under “RBNS enrichment (R)”, `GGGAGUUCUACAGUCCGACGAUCUUUCACUUUUUCCCAGCUGCGUCCACAGGAAAGGGGAGUCGGAUGCCAGCUGCACCCCGCCUGGCUCGCACAGGCUAAGACCACAGACAGAGCAGGGCUUCCCGGAGCCAUGGAAUUCUCGGGUGCCAA` is recorded as 0.655.
`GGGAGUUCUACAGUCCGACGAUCCUGGGCUUUUCUGUAAUAAGCUUCCUUUUAUAAUACUGGUCAGCUUAGCUCUCUCAGAUCCUAUCCUGUGGAAUUUAGUUAUUAUGUGUAUUUAUGUAGUAUUUCAAACAUGGAAUUCUCGGGUGCCAA` — result for “RBNS enrichment (R)”: 0.746.

Block 2
Target: CCNE2, cyclin fold, Cln2 fusion (human)
Technique: yeast growth competition, sequencing
Matrix: yeast
Setting: weak parent motif
Relative to: not given
Reading: higher = stronger binding
Parent: REV3L docking peptide (human); PPVIIKYIIINRF; partner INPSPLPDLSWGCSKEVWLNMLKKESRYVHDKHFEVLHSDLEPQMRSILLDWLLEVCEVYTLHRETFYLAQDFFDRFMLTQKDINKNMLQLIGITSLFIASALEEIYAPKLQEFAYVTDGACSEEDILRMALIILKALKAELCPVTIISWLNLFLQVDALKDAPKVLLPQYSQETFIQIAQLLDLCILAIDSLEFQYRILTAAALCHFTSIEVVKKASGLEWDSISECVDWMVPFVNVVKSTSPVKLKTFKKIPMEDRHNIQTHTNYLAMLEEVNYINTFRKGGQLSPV
Under “normalised enrichment score”, `Y7A` is recorded as 0.967.
For `V3A`, “normalised enrichment score” read 0.986.
`N11A` — result for “normalised enrichment score”: 0.42.
`P1A`: “normalised enrichment score” 0.661.
Under “normalised enrichment score”, `K6A` is recorded as 0.118.
`I4A`: “normalised enrichment score” 0.407.

Block 3
Target: Sal-like protein 4, full length isoform A (SALL4, Homo sapiens, UniProt Q9UJQ4, residues 1-1053)
Sequence of UniProt Q9UJQ4 (whole entry, looked up): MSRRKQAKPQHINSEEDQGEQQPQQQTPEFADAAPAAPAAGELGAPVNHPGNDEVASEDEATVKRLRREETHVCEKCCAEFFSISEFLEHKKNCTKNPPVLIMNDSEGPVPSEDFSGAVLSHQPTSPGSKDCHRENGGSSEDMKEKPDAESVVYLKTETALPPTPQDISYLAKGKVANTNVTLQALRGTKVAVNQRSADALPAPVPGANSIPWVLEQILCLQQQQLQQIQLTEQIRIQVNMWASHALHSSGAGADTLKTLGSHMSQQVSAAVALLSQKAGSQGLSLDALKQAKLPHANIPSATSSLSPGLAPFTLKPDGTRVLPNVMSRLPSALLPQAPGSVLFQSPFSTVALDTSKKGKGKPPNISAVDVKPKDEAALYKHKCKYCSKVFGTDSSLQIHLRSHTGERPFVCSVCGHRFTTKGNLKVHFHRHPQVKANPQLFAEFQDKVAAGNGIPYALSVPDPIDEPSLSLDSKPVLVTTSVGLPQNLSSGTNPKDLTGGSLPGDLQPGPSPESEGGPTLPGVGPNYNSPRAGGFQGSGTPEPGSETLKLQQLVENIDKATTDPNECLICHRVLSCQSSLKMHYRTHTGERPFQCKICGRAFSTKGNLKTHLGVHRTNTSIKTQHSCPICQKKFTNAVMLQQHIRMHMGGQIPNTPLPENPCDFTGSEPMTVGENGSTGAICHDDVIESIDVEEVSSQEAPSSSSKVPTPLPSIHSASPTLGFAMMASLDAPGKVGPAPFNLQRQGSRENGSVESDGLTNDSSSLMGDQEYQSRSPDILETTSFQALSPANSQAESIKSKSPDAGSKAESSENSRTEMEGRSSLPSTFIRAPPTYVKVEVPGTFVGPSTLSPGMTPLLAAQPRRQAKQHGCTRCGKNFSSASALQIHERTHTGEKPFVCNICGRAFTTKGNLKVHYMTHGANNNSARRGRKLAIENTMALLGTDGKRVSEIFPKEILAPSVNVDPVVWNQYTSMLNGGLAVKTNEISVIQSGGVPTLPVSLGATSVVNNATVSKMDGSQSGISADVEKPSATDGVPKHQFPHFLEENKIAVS
Technique: universal PBM
Molecule type: double-stranded DNA, one strand shown
Matrix: in vitro
Tested at: 600 nM
Setting: 8-mer, flanks averaged, mean of replicates
Reading: higher = stronger binding
For `CGCCTACC`, the E-score was -0.271.
`ACACGGAA` has an E-score of -0.0205.
For `ACCGCCCC`, the E-score was -0.297.
The E-score of `ACCATGTG` is reported as -0.0226.
For `GACGCCAA`, the E-score was -0.193.
For `GCTATAAC`, the E-score was 0.147.
For `ACATTGAA`, the E-score was 0.292.
With `CCCGCTGC` the E-score was -0.242.
For `GATGTGGA`, the E-score was 0.152.
With `CCGCAGTA` the E-score was -0.114.
With `GTTAGGTA` the E-score was 0.158.
The E-score of `AAGCATGC` is reported as -0.0113.
`GTTTAAGA` has an E-score of -0.0718.
`ACGGGAGA` has an E-score of -0.0301.
`CCATACAA` gave an E-score of 0.152.
`GTCCCGCA` gave an E-score of -0.225.
With `CCACGTTC` the E-score was -0.245.
`AAACCCTT` gave an E-score of 0.068.
The E-score of `AAGAAATA` is reported as 0.315.
With `GTCGTATA` the E-score was 0.12.
`AAGGTACA` has an E-score of 0.103.
`AGGCCCGA` gave an E-score of -0.373.
`CACGACTG` has an E-score of -0.2.
`AGCCGGCG` gave an E-score of -0.278.

Block 4
Target: Interferon regulatory factor 5, full length, phosphomimetic (IRF5, Homo sapiens, UniProt Q13568-2, residues 1-514, S451D/S453D/S456D/S462D)
Technique: protein-binding microarray
Molecule type: double-stranded DNA, one strand shown
Matrix: in vitro
Tested at: 940 nM top
Setting: 60-bp whole probe
With: salmon DNA 0.4 mg/ml
Relative to: random background probes
Reading: higher = stronger binding
All sequences stand within: GCCTAGCAC … GTCTTGATTCGCTTGACGCTGCTG
Under “fitted relative affinity”, `TCTGTAATTCTTAGAACAGCGTGCTAG` is recorded as -0.261 z-score.
For `GACCGACTGGGTATCGGGACGTGCTAG`, “fitted relative affinity” read 1.53 z-score.
`TTAGAACTGCGTTTCGATTAGTGCTAG`: “fitted relative affinity” 2.18 z-score.
`TTTGGTTTCGACTTTCGGTTAGTGCTA` — result for “fitted relative affinity”: 10.8 z-score.
`TTAGGTATCGACACTAGGTTAGTGCTA` — result for “fitted relative affinity”: 4.53 z-score.
`GACGATTTCGTGTTTCGAGACGTGCTA`: “fitted relative affinity” 0.595 z-score.
`GACGATTTCAGACTCGAGACGTGCTAG` — result for “fitted relative affinity”: -0.025 z-score.
Under “fitted relative affinity”, `TTAGGTATCGACTTTCGGTTCGTGCTA` is recorded as 5.77 z-score.
Under “fitted relative affinity”, `TTAGATTTCGGGTACCGATTAGTGCTA` is recorded as 1.03 z-score.
Under “fitted relative affinity”, `TTAGGTCTCGGTATCGGTCAGTGCTAG` is recorded as 6.81 z-score.
Under “fitted relative affinity”, `TTGGTTTTCTCTATTGCTTTGTGCTAG` is recorded as 1.9 z-score.
`GACGATTTCAGTTACGAGACGTGCTAG`: “fitted relative affinity” 0.311 z-score.
For `TTCAGTTTCTCTTTCCTTCTGTGCTAG`, “fitted relative affinity” read 5.91 z-score.
For `TCAGATTTCGATTACAAACTGTGCTAG`, “fitted relative affinity” read 1.39 z-score.
`TTAGGTTCCGGTTACGGTTAGTGCTAG` — result for “fitted relative affinity”: 4.06 z-score.
`TTAGATTTCGGGACTGGATCAGTGCTA`: “fitted relative affinity” 0.64 z-score.
For `TTCTCAACCAGTTTTCTTTTCGTGCTA`, “fitted relative affinity” read 2.02 z-score.
`TTAGGTCTTGGTATCGGTTAGTGCTAG`: “fitted relative affinity” 6.06 z-score.
`GACGGACTGGGTATTGGGACGTGCTAG`: “fitted relative affinity” -0.676 z-score.
`GACGGTTTCGGGTATCGGTACGTGCTA`: “fitted relative affinity” 9.52 z-score.
`TTGGATTTCAGTTTCGATTAGTGCTAG` — result for “fitted relative affinity”: 9.16 z-score.
`TTAGATATGGGGTTTCGATTAGTGCTA` — result for “fitted relative affinity”: 5.36 z-score.

Repeated from above (block 2):
Under “normalised enrichment score”, `Y7A` is recorded as 0.967.
For `V3A`, “normalised enrichment score” read 0.986.
`N11A` — result for “normalised enrichment score”: 0.42.
`P1A`: “normalised enrichment score” 0.661.
Under “normalised enrichment score”, `K6A` is recorded as 0.118.
`I4A`: “normalised enrichment score” 0.407.
